Published values of several laboratories.
Numbered parts are unrelated; each lists some results of a single study.
Sequence of UniProt P00519 (whole entry, unmodified, looked up): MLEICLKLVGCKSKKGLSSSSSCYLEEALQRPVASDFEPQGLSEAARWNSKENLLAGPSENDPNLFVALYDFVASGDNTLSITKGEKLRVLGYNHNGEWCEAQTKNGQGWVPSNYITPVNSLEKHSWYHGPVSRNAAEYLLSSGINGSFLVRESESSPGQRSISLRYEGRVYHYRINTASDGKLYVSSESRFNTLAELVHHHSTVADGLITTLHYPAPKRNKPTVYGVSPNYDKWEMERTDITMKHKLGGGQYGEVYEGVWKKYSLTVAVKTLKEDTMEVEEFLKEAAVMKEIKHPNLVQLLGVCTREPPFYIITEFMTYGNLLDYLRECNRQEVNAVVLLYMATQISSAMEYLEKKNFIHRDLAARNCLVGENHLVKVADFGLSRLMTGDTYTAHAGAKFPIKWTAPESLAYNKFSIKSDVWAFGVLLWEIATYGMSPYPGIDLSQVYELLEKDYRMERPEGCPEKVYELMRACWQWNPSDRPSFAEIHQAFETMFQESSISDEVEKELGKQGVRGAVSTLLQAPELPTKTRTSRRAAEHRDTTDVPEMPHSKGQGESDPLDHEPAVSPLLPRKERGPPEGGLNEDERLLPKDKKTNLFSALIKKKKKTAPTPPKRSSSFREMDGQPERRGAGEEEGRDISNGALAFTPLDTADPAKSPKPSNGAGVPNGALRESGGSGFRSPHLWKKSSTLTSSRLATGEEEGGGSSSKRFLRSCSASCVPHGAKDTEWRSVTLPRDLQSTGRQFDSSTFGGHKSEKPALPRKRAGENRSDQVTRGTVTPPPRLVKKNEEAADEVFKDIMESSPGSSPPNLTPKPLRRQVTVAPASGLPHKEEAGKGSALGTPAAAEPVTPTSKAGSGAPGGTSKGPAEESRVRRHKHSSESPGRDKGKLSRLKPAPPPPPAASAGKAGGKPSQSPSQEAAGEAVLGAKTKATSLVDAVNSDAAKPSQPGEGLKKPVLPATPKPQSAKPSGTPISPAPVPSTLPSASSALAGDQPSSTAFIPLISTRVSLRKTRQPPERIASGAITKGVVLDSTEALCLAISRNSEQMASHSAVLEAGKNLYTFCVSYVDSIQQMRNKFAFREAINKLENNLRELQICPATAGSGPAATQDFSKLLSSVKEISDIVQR
Sequence of UniProt Q13555 (whole entry, looked up): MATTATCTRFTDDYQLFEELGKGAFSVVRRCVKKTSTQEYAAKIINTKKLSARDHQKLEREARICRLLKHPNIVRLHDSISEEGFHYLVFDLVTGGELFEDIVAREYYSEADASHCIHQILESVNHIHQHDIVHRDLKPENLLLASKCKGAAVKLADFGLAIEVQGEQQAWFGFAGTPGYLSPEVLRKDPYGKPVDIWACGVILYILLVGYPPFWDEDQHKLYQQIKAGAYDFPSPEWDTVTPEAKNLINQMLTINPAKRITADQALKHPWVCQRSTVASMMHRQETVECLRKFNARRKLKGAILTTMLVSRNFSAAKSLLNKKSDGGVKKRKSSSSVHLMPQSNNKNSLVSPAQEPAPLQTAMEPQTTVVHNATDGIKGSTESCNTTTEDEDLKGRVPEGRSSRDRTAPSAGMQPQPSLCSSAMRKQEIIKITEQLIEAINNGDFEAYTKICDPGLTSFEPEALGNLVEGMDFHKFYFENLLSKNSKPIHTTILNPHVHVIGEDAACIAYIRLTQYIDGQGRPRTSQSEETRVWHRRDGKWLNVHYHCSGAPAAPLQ
Sequence of UniProt P22607 (whole entry, looked up): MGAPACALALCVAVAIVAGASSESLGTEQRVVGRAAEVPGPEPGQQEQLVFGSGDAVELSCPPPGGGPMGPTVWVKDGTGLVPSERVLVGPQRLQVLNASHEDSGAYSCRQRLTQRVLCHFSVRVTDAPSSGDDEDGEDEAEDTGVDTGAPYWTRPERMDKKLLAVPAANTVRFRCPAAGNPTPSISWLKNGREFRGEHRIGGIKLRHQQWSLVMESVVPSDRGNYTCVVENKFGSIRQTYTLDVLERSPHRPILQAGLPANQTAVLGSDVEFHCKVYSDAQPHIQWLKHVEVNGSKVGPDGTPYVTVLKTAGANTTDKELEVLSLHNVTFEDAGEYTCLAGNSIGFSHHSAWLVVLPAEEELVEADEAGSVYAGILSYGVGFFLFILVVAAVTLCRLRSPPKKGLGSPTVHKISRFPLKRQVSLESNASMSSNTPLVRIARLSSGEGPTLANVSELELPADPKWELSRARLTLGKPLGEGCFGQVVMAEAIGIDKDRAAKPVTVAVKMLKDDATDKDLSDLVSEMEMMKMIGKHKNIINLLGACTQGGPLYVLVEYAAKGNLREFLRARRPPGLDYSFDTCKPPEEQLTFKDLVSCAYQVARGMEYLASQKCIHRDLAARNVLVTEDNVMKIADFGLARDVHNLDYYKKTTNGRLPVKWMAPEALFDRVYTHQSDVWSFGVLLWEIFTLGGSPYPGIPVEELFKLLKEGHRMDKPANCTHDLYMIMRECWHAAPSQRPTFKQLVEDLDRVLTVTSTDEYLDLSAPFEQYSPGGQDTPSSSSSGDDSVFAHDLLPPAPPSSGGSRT
Sequence of UniProt O00444 (whole entry, looked up): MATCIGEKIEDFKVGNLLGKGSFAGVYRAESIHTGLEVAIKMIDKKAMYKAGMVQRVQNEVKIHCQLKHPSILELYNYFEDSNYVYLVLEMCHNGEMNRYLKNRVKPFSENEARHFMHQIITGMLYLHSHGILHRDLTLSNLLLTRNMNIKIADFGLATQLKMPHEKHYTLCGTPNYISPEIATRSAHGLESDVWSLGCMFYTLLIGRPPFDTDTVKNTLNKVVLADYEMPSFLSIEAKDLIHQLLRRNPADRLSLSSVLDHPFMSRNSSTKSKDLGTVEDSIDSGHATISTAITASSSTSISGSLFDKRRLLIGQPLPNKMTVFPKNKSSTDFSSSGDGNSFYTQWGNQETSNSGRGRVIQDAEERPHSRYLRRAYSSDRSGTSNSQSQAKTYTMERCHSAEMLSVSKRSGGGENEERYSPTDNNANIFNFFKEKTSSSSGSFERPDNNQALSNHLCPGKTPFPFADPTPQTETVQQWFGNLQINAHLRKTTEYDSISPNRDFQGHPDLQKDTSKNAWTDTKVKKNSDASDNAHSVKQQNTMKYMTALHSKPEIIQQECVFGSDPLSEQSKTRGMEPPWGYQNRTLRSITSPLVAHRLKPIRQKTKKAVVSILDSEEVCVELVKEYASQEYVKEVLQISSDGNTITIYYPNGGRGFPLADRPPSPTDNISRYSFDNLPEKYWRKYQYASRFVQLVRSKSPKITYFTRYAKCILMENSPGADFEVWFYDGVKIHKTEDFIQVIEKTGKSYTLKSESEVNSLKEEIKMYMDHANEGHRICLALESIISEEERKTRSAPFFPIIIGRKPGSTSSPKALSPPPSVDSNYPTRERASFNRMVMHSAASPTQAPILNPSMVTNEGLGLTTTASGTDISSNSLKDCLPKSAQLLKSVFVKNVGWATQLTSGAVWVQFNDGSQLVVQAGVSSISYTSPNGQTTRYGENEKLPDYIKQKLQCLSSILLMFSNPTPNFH
Sequence of UniProt Q9BQI3 (whole entry, looked up): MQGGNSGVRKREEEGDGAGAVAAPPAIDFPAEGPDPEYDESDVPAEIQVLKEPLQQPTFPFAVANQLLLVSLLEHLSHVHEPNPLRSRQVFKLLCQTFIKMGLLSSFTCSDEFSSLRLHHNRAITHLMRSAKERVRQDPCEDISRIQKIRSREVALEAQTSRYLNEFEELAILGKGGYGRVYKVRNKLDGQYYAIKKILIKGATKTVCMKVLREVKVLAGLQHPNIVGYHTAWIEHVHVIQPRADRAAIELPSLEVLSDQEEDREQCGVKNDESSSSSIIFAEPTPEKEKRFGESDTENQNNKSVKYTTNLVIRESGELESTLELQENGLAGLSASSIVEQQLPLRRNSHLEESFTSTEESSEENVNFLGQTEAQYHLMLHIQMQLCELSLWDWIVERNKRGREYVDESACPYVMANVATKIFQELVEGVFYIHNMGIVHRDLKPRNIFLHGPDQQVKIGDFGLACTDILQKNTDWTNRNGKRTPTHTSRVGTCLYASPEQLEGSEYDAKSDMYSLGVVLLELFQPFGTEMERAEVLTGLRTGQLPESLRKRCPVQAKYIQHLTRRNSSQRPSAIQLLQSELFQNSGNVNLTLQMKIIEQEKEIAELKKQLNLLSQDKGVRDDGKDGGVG
Sequence of UniProt P49336 (whole entry, looked up): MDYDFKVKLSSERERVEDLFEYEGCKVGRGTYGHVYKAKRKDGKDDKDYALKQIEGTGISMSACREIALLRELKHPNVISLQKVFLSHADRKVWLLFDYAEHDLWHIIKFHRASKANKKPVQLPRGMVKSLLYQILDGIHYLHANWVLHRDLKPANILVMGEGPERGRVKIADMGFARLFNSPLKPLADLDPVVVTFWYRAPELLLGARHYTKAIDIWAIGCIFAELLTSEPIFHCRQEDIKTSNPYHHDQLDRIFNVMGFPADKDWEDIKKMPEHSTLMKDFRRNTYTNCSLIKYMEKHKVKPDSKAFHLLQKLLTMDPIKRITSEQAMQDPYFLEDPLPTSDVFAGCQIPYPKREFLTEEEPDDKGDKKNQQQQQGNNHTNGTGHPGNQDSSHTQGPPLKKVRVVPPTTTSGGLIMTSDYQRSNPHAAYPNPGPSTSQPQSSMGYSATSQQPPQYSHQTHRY

Sample 1 — cell line: HaCaT; concentration: 100 µM; time: 18 h
The viability of `CC(=O)Nc1cccc(-n2c(=O)n(C3CC3)c(=O)c3c(Nc4ccc(I)cc4F)n(C)c(=O)c(C)c32)c1` is reported as 74.4%.
With `CCCS(=O)(=O)Nc1ccc(F)c(C(=O)c2c[nH]c3ncc(-c4ccc(Cl)cc4)cc23)c1F` the viability was 55.5%.
`CCCCOc1ccc(OCCCN2CCOCC2)cc1` gave a viability of 97.3%.
`CC(C)(Oc1ccc(C(=O)c2ccc(Cl)cc2)cc1)C(=O)O` gave a viability of 99.9%.
`COc1ccc(C(C)=O)c(O)c1` gave a viability of 95.5%.
For `CS(=O)(=O)Nc1ccc([N+](=O)[O-])cc1Oc1ccccc1`, the viability was 93.7%.
`COc1cc2c(Oc3ccc4[nH]c(C)cc4c3F)ncnc2cc1OCCCN1CCCC1` gave a viability of 18.4%.
`NS(=O)(=O)c1cc2c(cc1Cl)NC(C(Cl)Cl)NS2(=O)=O` (centres unmarked) has a viability of 96.9%.
`O=c1cc[nH]c(=S)[nH]1` has a viability of 98.1%.
With `O=C1O[C@H]([C@@H](O)CO)C(O)=C1O` the viability was 115%.
`Cc1cc(=O)oc2cc(O)ccc12` has a viability of 53.7%.

Sample 2 — read-out: enzyme activity; action: inhibitor; concentration: 10 µM
Target: Calcium/calmodulin-dependent protein kinase type II subunit alpha (CAMK2A, Homo sapiens, UniProt Q9UQM7)
Sequence of UniProt Q9UQM7 (whole entry, looked up): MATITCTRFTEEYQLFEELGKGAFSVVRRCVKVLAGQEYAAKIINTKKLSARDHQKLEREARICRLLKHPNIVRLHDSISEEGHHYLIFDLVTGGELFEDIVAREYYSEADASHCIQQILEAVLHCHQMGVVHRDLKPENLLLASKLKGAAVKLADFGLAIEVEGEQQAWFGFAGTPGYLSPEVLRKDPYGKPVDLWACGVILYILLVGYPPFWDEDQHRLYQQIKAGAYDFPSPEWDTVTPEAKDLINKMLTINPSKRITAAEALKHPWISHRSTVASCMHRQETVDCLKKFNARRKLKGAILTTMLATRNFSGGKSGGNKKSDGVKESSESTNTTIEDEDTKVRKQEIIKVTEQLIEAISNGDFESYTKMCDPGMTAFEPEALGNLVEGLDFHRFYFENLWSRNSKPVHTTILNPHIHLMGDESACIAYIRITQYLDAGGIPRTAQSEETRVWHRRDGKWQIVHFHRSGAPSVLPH
`O=C(OC[C@H]1O[C@@H](OC(=O)c2cc(O)c(O)c(O)c2)[C@H](OC(=O)c2cc(O)c(O)c(O)c2)[C@@H](OC(=O)c2cc(O)c(O)c(O)c2)[C@@H]1O)c1cc(O)c(O)c(O)c1` gave an inhibition of -64%.
With `CO/N=C(\C(=O)N[C@@H]1C(=O)N2C(C(=O)O)=CCS[C@H]12)c1csc(N)n1` the inhibition was 11%.
`NCCNc1ccc(NCCN)c2c1C(=O)c1ccncc1C2=O` gave an inhibition of 15%.
For `CC(C)=CCc1c(-c2ccc(O)cc2O)oc2c3c(cc(O)c2c1=O)OC(C)(C)C=C3`, the inhibition was 26%.
`C[C@]1(OC(=O)/C=C/c2ccccc2)C[C@@H](O)[C@]2(O)C=CO[C@@H](O[C@@H]3O[C@H](CO)[C@@H](O)[C@H](O)[C@H]3O)[C@@H]21` gave an inhibition of -38%.
The inhibition of `COc1ccc(-c2cc(C(F)F)nn2-c2ccc(S(N)(=O)=O)cc2)cc1F` is reported as -4%.
The inhibition of `CCN(CC)CCc1nc(-c2ccccc2)no1` is reported as 4%.
`Oc1cc(O)c2cc(O)c(-c3ccc(O)c(O)c3)[o+]c2c1` has an inhibition of -49%.
`C=CCCCCCCCCC(=O)O` has an inhibition of 2%.
For `COc1ccc([C@@H]2CC(=O)c3c(O)cc(O[C@@H]4O[C@H](CO[C@@H]5O[C@@H](C)[C@H](O)[C@@H](O)[C@H]5O)[C@@H](O)[C@H](O)[C@H]4O)cc3O2)cc1O`, the inhibition was 6%.
`NCC(=O)NCC(=O)O` has an inhibition of 11%.

Sample 3 — technique: competition with immobilised ligand; concentration: 1 µM
Compound: CN(C)CC#Cc1ccc(OCCCc2sc(N3CCc4cccc(C(=O)Nc5nc6ccccc6s5)c4C3)nc2C(=O)O)c(F)c1
For Muscle, skeletal receptor tyrosine-protein kinase (MUSK, Homo sapiens, UniProt O15146); cell-free assay: remaining binding read 84%.
The remaining binding was 96% (Mast/stem cell growth factor receptor Kit (KIT, Homo sapiens, UniProt P10721, V559D); cell-free assay).
Ephrin type-A receptor 4 (EPHA4, Homo sapiens, UniProt P54764); cell-free assay — remaining binding: 88%.
Ribosomal protein S6 kinase alpha-6, N-terminal kinase domain (RPS6KA6, Homo sapiens, UniProt Q9UK32); cell-free assay — remaining binding: 90%.
The remaining binding was 100% (Serine/threonine-protein kinase tousled-like 2 (TLK2, Homo sapiens, UniProt Q86UE8); cell-free assay).
It gave 100% for remaining binding (Leucine-rich repeat serine/threonine-protein kinase 2 (LRRK2, Homo sapiens, UniProt Q5S007); cell-free assay).
It gave 93% for remaining binding (Serine/threonine-protein kinase BRSK2 (BRSK2, Homo sapiens, UniProt Q8IWQ3); cell-free assay).
For Rhodopsin kinase GRK1 (GRK1, Homo sapiens, UniProt Q15835); cell-free assay: remaining binding read 95%.
It gave 93% for remaining binding (Serine/threonine-protein kinase MARK1 (MARK1, Homo sapiens, UniProt Q9P0L2); cell-free assay).
Phosphatidylinositol 5-phosphate 4-kinase type-2 gamma (PIP4K2C, Homo sapiens, UniProt Q8TBX8); cell-free assay — remaining binding: 100%.
For Phosphatidylinositol 4,5-bisphosphate 3-kinase catalytic subunit alpha isoform (PIK3CA, Homo sapiens, UniProt P42336, I800L); cell-free assay: remaining binding read 75%.
For Eukaryotic translation initiation factor 2-alpha kinase 1 (EIF2AK1, Homo sapiens, UniProt Q9BQI3); cell-free assay: remaining binding read 98%.
Serine/threonine-protein kinase MAK (MAK, Homo sapiens, UniProt P20794); cell-free assay — remaining binding: 100%.
Tyrosine-protein kinase ABL1, non-phosphorylated (ABL1, Homo sapiens, UniProt P00519, F317I); binding — remaining binding: 100%.
For Myosin light chain kinase (MYLK3, Homo sapiens, UniProt Q32MK0); cell-free assay: remaining binding read 78%.
It gave 62% for remaining binding (Calcium/calmodulin-dependent protein kinase type II subunit gamma (CAMK2G, Homo sapiens, UniProt Q13555); cell-free assay).
The remaining binding was 98% (Fibroblast growth factor receptor 3 (FGFR3, Homo sapiens, UniProt P22607); cell-free assay).
Serine/threonine-protein kinase RIO1 (RIOK1, Homo sapiens, UniProt Q9BRS2); cell-free assay — remaining binding: 91%.
For Transient receptor potential cation channel subfamily M member 6 (TRPM6, Homo sapiens, UniProt Q9BX84); cell-free assay: remaining binding read 84%.
It gave 90% for remaining binding (Serine/threonine-protein kinase WNK1 (WNK1, Homo sapiens, UniProt Q9H4A3); cell-free assay).
It gave 100% for remaining binding (Serine/threonine-protein kinase ULK2 (ULK2, Homo sapiens, UniProt Q8IYT8); cell-free assay).
ALK tyrosine kinase receptor (ALK, Homo sapiens, UniProt Q9UM73, L1196M); cell-free assay — remaining binding: 100%.
It gave 77% for remaining binding (Serine/threonine-protein kinase PLK4 (PLK4, Homo sapiens, UniProt O00444); cell-free assay).

Sample 4 — read-out: enzyme activity; concentration: 10 µM; reference: untreated control
Compound: Cc1sc(C(=O)NC2COC2)cc1-n1cc(NC(=O)Nc2c(F)cccc2Cl)cn1
It gave 95.7% for remaining activity (Dual serine/threonine and tyrosine protein kinase (DSTYK, Homo sapiens, UniProt Q6XUX3)).
Macrophage-stimulating protein receptor (MST1R, Homo sapiens, UniProt Q04912) — remaining activity: 88%.
Tyrosine-protein kinase Yes (YES1, Homo sapiens, UniProt P07947) — remaining activity: 81.2%.
Death-associated protein kinase 3 (DAPK3, Homo sapiens, UniProt O43293) — remaining activity: 99.5%.
For Dual specificity testis-specific protein kinase 1 (TESK1, Homo sapiens, UniProt Q15569): remaining activity read 88.7%.
The remaining activity was 84.4% (Protein kinase C eta type (PRKCH, Homo sapiens, UniProt P24723)).
It gave 91.8% for remaining activity (Cyclin-dependent kinase 8, with cyclin C (CDK8, Homo sapiens, UniProt P49336)).
For Testis-specific serine/threonine-protein kinase 6 (TSSK6, Homo sapiens, UniProt Q9BXA6): remaining activity read 87.6%.
Receptor-interacting serine/threonine-protein kinase 2 (RIPK2, Homo sapiens, UniProt O43353) — remaining activity: 87.5%.
Death-associated protein kinase 2 (DAPK2, Homo sapiens, UniProt Q9UIK4) — remaining activity: 97.3%.
It gave 95.2% for remaining activity (Tyrosine-protein kinase JAK3 (JAK3, Homo sapiens, UniProt P52333)).

Some of these lines once more (sample 3):
For Myosin light chain kinase (MYLK3, Homo sapiens, UniProt Q32MK0); cell-free assay: remaining binding read 78%.
It gave 62% for remaining binding (Calcium/calmodulin-dependent protein kinase type II subunit gamma (CAMK2G, Homo sapiens, UniProt Q13555); cell-free assay).
The remaining binding was 98% (Fibroblast growth factor receptor 3 (FGFR3, Homo sapiens, UniProt P22607); cell-free assay).
Serine/threonine-protein kinase RIO1 (RIOK1, Homo sapiens, UniProt Q9BRS2); cell-free assay — remaining binding: 91%.
